# Experimental data of several laboratories.
# Compare with care: the assays were run in different laboratories. Numbers after ± are the reported error.
Structure (SMILES),assay,test system,setting,tissue uptake [%ID/g]
O=C([O-])c1cccc(CN(CCN(Cc2cn(Cc3ccccc3)nn2)Cc2cccc(C(=O)[O-])n2)Cc2cn(Cc3ccccc3)nn2)n1.[64Cu+2],,"nude athymic mice, healthy, femur","intravenous, 4 h, 64Cu label",2.38
CC(C)[C@H](NC(=O)[C@@H]1CCCN1C(=O)[C@H](CCCNC(=N)N)NC(=O)[C@H](CS)NC(=O)[C@H](Cc1c[nH]c2ccccc12)NC(=O)[C@H](CCCNC(=N)N)NC(=O)[C@@H](Cc1ccccc1)NC(=O)[C@H](Cc1c[nH]cn1)NC(=O)[C@H](CCC(=O)O)NC(=O)[C@H](CS)NC(=O)[C@H](CS)NC(=O)[C@@H]1CC(=O)N[C@@H](CCCNC(=N)N)C(=O)NCC(=O)N[C@@H](CC(=O)O)C(=O)N[C@H](Cc2ccc(O)cc2)C(=O)N1)C(N)=O [technetium-99m labelled],,"C57 mice B16/F1 melanoma female, kidneys","iv, 0.037 MBq, 0.5 h",29.3 ± 2.98
CCCC[C@@H]1NC(=O)[C@@H](NC(=O)[C@H](CCC(=O)O)NC(=O)CNC(=O)CN2CCN(CC(=O)O)CCN(CC(=O)O)CCN(CC(=O)O)CC2)CCCCNC(=O)C[C@@H](C(N)=O)NC(=O)[C@H](C(C)C)NC(=O)[C@@H]2CCCN2C(=O)[C@H](CCCNC(=N)N)NC(=O)CNC(=O)[C@H](Cc2c[nH]c3ccccc23)NC(=O)[C@H](CCCNC(=N)N)NC(=O)[C@@H](Cc2ccccc2)NC(=O)[C@H](Cc2c[nH]cn2)NC(=O)[C@H](CCC(=O)O)NC1=O [gallium-67 labelled],,"normal C57 mice, stomach","intravenous, 0.037 MBq/mouse, 2 h",0.21 ± 0.02
O=C([O-])CN1CCN(CC(=O)[O-])CCN(CC(=O)[O-])CCN(CC(=O)[O-])CC1.[64Cu+2],,"healthy athymic nude mice, kidney","intravenous, 4 h",1.59
CCCC[C@H](NC(=O)CN1CCC(NC(=O)CN2CCN(CC(=O)O)CCN(CC(=O)O)CCN(CC(=O)O)CC2)CC1)C(=O)N[C@H]1CC(=O)NCCCC[C@@H](C(N)=O)NC(=O)[C@H](Cc2c[nH]c3ccccc23)NC(=O)[C@H](CCCNC(=N)N)NC(=O)[C@@H](Cc2ccccc2)NC(=O)[C@H](Cc2c[nH]cn2)NC1=O [gallium-68 labelled],,"C57BL/6J mice male B16-F10 tumour, intestine","1 h post injection, unblocked",0.7 ± 0.5
NC12CNCCNCC(NCc3ccc(CNC(=O)CCCC(=O)NCc4ccc(-c5nncnn5)cc4)cc3)(CNCCNC1)CNCCNC2.[64Cu+2],,"athymic nude mice SW1222 xenograft, bone","4 h post injection, 24 h accumulation interval, together with: huA33-TCO pretargeting",0.34 ± 0.18
CCCC[C@H](NC(=O)CNC(=O)CNC(=O)CN1CCN(CC(=O)O)CCN(CC(=O)O)CC1)C(=O)N[C@H]1CC(=O)NCCCC[C@@H](C(N)=O)NC(=O)[C@H](Cc2c[nH]c3ccccc23)NC(=O)[C@H](CCCNC(=N)N)NC(=O)[C@@H](Cc2ccccc2)NC(=O)[C@H](Cc2c[nH]cn2)NC1=O [gallium-67 labelled],,"female C57 mice, B16/F1 melanoma, blood","intravenous, 0.037 MBq, 0.5 h",2.25 ± 0.09
CN1C(=O)[C@@H](Cc2ccc(O)c(I)c2)NC(=O)CNC(=O)[C@H](Cc2ccc3ccccc3c2)NC(=O)[C@H](CCCNC(=N)N)NC(=O)[C@H]1CCCNC(=O)c1ccc(CNC(=O)CN2CCN(CC(=O)O)CCN(CC(=O)O)CCN(CC(=O)O)CC2)cc1 [lutetium-177 labelled],measured: 177Lu radioactivity,"female CB-17 SCID mice, Daudi xenograft, adrenals","intravenous, 0.16 nmol per mouse, 6 h",0.64 ± 0.13

# Repeated from above:
Structure (SMILES),assay,test system,setting,tissue uptake [%ID/g]
CCCC[C@H](NC(=O)CNC(=O)CNC(=O)CN1CCN(CC(=O)O)CCN(CC(=O)O)CC1)C(=O)N[C@H]1CC(=O)NCCCC[C@@H](C(N)=O)NC(=O)[C@H](Cc2c[nH]c3ccccc23)NC(=O)[C@H](CCCNC(=N)N)NC(=O)[C@@H](Cc2ccccc2)NC(=O)[C@H](Cc2c[nH]cn2)NC1=O [gallium-67 labelled],,"female C57 mice, B16/F1 melanoma, blood","intravenous, 0.037 MBq, 0.5 h",2.25 ± 0.09
